Measured values of several laboratories.
Each numbered part is a random draw from the data of one study; scales do not carry over between parts. Changes are numbered by the printed parent chain.

Sample 1
Target: PABPC1L2, full length, GST fusion (mouse, UniProt A0ABA7IW68)
Technique: RNAcompete
Molecule type: RNA
Matrix: in vitro
Concentration: 20 nM
Notes: 7-mer, probes averaged, single round
Baseline: mean of 7-mers
Reading: higher = stronger binding
Residues (chain): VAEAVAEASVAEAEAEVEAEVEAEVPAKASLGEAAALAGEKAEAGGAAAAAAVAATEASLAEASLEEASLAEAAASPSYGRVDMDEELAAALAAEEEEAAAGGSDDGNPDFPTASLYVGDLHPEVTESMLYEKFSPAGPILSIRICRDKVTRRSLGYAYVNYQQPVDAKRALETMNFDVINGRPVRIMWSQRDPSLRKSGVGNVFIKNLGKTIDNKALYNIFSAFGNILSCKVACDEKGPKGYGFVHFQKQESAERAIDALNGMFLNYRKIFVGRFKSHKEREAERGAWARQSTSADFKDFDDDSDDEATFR
| Oligonucleotide | 7-mer Z-score |
| --- | --- |
| AGAUGCA | -0.277 |
| CUUCACU | -0.344 |
| UGCAGUG | -0.309 |
| CAGUACU | -0.325 |
| GCGCCCG | -0.342 |
| GCCCCUU | -0.396 |
| CACGUGC | -0.104 |
| UACAUCU | -0.229 |
| GCGCCCU | -0.237 |
| CCAAAUU | -0.101 |

Sample 2
Target: Myc proto-oncogene protein, bHLH-zipper, MAX partner unstated (MYC, Homo sapiens, UniProt P01106, residues 368-449)
UniProt P01106, sequence (368-449, looked up): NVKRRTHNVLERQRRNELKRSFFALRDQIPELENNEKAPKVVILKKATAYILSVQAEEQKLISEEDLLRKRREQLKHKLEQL
Technique: protein-binding microarray
Molecule type: double-stranded DNA, one strand shown
Matrix: in vitro
Concentration: not given
Notes: k-mer, scored over probes, only values ≥0.25
Reading: higher = stronger binding
| Oligonucleotide | E-score |
| --- | --- |
| CGTGACGA | 0.263 |
| ATGTCATG | 0.304 |
| CACGATAC | 0.286 |
| ATGCGGTG | 0.309 |
| ATGAGGCG | 0.297 |
| CTAACCAC | 0.259 |
| AATGCATG | 0.381 |
| CCCCAACC | 0.339 |
| CGCGCCAC | 0.257 |
| GCGGGCAC | 0.277 |
| AACCGCAC | 0.282 |
| CACGCGTC | 0.439 |
| ATGCACAT | 0.345 |

Sample 3
Target: Fragile X messenger ribonucleoprotein 1, C-terminal low-complexity region (Fmr1, Mus musculus, UniProt P35922)
Technique: RNA Bind-n-Seq
Molecule type: RNA
Matrix: in vitro
Concentration: 200 nM
Notes: whole 134-nt RNA, ends assumed
With: 150 mM KCl
Baseline: input library
Reading: higher = stronger binding
| Oligonucleotide | log2 enrichment |
| --- | --- |
| GGGAGUUCUACAGUCCGACGAUCAAGUCCUGUGCUACACAUCGUAUGUACCGAAUCGGGCCCCGGCCCCGGGGCCCCGGAAAGUAUUAUGUUACGCCGUUCGGAUCUGCACUUUGGAAUUCUCGGGUGUCAAGG | -1.32 |
| GGGAGUUCUACAGUCCGACGAUCGCAGGAAGUAAAAACAAAUGGAAACGCUUCGGAUAGUGGCAGGGGUGGGGGUUGCUAAGGAAAGGGUGGGAUGGGAGUGGGUAAAGAGUUUGGAAUUCUCGGGUGUCAAGG | 0.203 |
| GGGAGUUCUACAGUCCGACGAUCUGUGCUACACAUCGUAUGUACCGAAUCGGGGAAAAAAAGGGAAAAAAAGGGGAAAAAAAGGGGAAAGUAUUAUGUUACGCCGUUCGGAUCUGGAAUUCUCGGGUGUCAAGG | -0.0548 |
| GGGAGUUCUACAGUCCGACGAUCACCAUGCAGGUGGGCAUCUUUGGGAAGUGGGGCAAGGGGGGGAUAGGGAGGGGGGUAACACUUUGGGAACAGGUCGUCCCAGGUCGUUUCUGGAAUUCUCGGGUGUCAAGG | 0.741 |

Sample 4
Target: Histone acetyltransferase KAT6A, winged helix 2, GST fusion (KAT6A, Homo sapiens, UniProt Q92794, residues 85-181)
Technique: protein binding microarray
Molecule type: double-stranded DNA, one strand shown
Matrix: in vitro
Concentration: not given
Notes: 8-mer, flanks averaged, mean of 2 arrays, mostly near background
Baseline: not given
Reading: higher = stronger binding
Residues (chain): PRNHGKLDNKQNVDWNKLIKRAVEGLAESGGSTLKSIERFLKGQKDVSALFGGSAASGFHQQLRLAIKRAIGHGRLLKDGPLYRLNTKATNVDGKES
| Oligonucleotide | E-score |
| --- | --- |
| GCTTGGTA | 0.0554 |
| CGGACCAG | 0.0863 |
| CAATGATA | -0.0935 |
| AATCAACC | -0.116 |
| AGCAGAAC | 0.0147 |
| CAAGCCTC | -0.0132 |
| AACATCCA | -0.0365 |
| AAAAAAGG | 0.0462 |
| ACATCCGC | 0.0743 |
| AGCCCGTC | -0.0726 |
| ATTCACTG | -0.0968 |
| AAAGCGTA | -0.216 |
| AACCTGGA | -0.0553 |
| GATCCTAC | 0.0163 |
| AACGCCGG | 0.0704 |
| AACCTGAG | -0.0636 |

Sample 5
Target: ABI1, truncated, D143A, DHFR fusion (Arabidopsis thaliana)
Technique: DHFR PCA, deep sequencing
Matrix: yeast
Notes: methotrexate growth selection, single substitutions
With: (+)-ABA 0.39 µM
Baseline: wild-type fitted maximum
Reading: higher = stronger binding
Starting sequence: PYL1, truncated, DHFR fusion (Arabidopsis thaliana); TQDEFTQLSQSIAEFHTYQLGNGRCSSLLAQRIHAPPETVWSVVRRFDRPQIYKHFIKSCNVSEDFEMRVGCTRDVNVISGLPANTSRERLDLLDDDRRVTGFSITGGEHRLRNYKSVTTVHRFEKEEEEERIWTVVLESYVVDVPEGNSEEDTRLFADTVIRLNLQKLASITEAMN
| Variant | relative binding score [%] |
| --- | --- |
| N177I | 18.4 |
| H110N | 60 |
| C25L | 6.89 |
| F47H | -14.4 |
| T135W | -10.5 |
| R123F | 3.34 |
| R32H | 28.6 |
| R111Q | -8.94 |
| T39I | 52.3 |

Sample 6
Target: Interferon regulatory factor 3, full length, phosphomimetic (IRF3, Homo sapiens, UniProt Q14653, residues 1-427, S386D/S396D/S398D/S402D/T404D/S405D)
UniProt Q14653, sequence (whole entry, unmodified, looked up): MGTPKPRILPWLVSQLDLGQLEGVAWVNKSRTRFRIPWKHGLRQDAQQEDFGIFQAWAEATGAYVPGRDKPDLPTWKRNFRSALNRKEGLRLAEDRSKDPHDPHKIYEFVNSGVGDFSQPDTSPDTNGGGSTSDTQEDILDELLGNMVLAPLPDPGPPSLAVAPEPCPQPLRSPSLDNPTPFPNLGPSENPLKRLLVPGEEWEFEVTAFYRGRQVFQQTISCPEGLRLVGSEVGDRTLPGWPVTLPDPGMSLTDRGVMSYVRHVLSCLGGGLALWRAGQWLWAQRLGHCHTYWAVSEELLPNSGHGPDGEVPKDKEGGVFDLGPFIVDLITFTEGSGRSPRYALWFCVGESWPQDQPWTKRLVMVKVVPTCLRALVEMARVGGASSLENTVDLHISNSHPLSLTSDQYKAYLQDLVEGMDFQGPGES
Technique: protein-binding microarray
Molecule type: double-stranded DNA, one strand shown
Matrix: in vitro
Concentration: 2540 nM top
Notes: 60-bp whole probe
With: salmon DNA 0.4 mg/ml
Baseline: random background probes
Reading: higher = stronger binding
Shared flanks, not repeated: GCCTAGCAC … GTCTTGATTCGCTTGACGCTGCTG
| Oligonucleotide | fitted relative affinity |
| --- | --- |
| GACGGACTGGGACTCGGGACGTGCTAG | -0.696 z-score |
| GACGTACTGCTTTTCCTGACGTGCTAG | 0.166 z-score |
| TCCATTTTCTAAATGCCCTGGTGCTAG | 2.79 z-score |
| TTAGGTATCCTTCTCCTTGAGTGCTAG | 6.71 z-score |
| GACGGTATCCTAATGCTGACGTGCTAG | 4.1 z-score |
| ATATATATCATTTAATTATAGTGCTAG | 0.939 z-score |
| TCAACTCTTTATTTAAGACTGTGCTAG | 0.53 z-score |
| TTAGGACTGCTTTTCGTTTAGTGCTAG | 1.12 z-score |
| GACGGTTTCGGTTACGGGACGTGCTAG | 7.78 z-score |
| TTAGGTATCGGGTAGCGGTTAGTGCTA | 0.499 z-score |
| GACGGAATCGACTTTCGGGACGTGCTA | 0.778 z-score |
| GACGATACCAGTATCGAGACGTGCTAG | 0.645 z-score |

Sample 7
Target: Sal-like protein 4, full length isoform A (SALL4, Homo sapiens, UniProt Q9UJQ4, residues 1-1053)
UniProt Q9UJQ4, sequence (whole entry, looked up): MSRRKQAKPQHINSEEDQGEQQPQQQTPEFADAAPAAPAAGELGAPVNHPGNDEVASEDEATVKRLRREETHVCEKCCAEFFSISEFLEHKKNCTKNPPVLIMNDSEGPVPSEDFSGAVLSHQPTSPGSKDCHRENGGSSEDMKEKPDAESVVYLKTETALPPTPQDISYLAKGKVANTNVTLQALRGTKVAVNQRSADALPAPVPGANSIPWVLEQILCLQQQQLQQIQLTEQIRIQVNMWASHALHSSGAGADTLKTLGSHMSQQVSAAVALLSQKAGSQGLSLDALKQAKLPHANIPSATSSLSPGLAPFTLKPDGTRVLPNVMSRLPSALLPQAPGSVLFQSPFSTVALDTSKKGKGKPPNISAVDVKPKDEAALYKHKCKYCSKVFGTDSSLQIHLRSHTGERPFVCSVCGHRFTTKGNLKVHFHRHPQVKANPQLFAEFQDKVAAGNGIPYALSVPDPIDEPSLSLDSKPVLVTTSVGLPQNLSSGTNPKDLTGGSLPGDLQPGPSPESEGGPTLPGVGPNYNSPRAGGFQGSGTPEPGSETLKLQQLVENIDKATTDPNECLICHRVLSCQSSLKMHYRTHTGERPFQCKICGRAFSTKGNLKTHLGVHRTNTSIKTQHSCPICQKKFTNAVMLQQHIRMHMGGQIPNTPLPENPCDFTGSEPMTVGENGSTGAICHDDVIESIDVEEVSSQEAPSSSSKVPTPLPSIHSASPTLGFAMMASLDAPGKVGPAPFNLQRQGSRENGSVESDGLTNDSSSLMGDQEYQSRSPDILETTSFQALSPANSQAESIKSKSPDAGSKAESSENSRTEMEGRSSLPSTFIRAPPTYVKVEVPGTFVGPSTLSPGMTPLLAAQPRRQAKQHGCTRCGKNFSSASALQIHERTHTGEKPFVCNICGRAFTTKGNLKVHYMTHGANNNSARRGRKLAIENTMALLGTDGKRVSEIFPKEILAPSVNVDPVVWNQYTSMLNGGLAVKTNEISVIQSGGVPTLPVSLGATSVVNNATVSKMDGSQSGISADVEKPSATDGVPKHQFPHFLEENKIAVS
Technique: universal PBM
Molecule type: double-stranded DNA, one strand shown
Matrix: in vitro
Concentration: 600 nM
Notes: 8-mer, flanks averaged, mean of replicates
Reading: higher = stronger binding
| Oligonucleotide | E-score |
| --- | --- |
| ATTTCACC | 0.152 |
| GATAACCA | 0.0565 |
| ATCGGGCG | -0.29 |
| AATCTGGC | -0.0511 |
| GAAAGGAC | 0.0717 |
| ACCGAAAT | 0.0892 |
| ACACAGCC | -0.157 |
| ATAGGACG | -0.00125 |
| AGTTTAGG | -0.0473 |
| TCGGACCA | -0.115 |
| AATCAAAC | 0.149 |
| CTTACCAC | -0.035 |
| GTCCGCCA | -0.221 |
| ACTCAGTG | -0.0452 |

Sample 8
Target: RNA binding protein fox-1 homolog 2, RRM domain, GST-SBP tag (RBFOX2, Homo sapiens, UniProt O43251-10, residues 100-194)
Technique: RNA Bind-n-Seq
Molecule type: RNA
Matrix: in vitro
Concentration: 365 nM
Notes: natural RNA segment, single round, ends assumed
Baseline: no-protein control
Reading: higher = stronger binding
Shared flanks, not repeated: GGGAGUUCUACAGUCCGACGAUC … UGGAAUUCUCGGGUGCCAA
Residues (chain): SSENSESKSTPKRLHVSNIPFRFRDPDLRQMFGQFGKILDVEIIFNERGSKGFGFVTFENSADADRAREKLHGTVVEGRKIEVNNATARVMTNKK
| Oligonucleotide | RBNS enrichment (R) |
| --- | --- |
| CCUAUAUGCCAGGCACUGUGCUAGGUGCUGGGAAUACCACUGAUGAGACAGACAAGGUCCCUACUCUUGUGGAGUUUACUUCUGGUGGAGGAGACAGAUGAUAAGUAAAC | 0.494 |
| UCUGUAAAGAUGCUUUAGAUUAGACUGUCAUGUCUCAGUGUCUAUCUGUAUAUAUUAUUUGAUAUUCAGAGAAUCUAAAGCACUCGUCUACUGUUUUAAUGAGAUUUAAC | 0.444 |
| UUGCAGUCAUUUGGUGCUCUGCUAACCAUUUAUAUAAAACUUAAAAACAAGAGAAAAGAAAAAUCAAUUAGAUCUAAACAGUUAUUUCUGUUUCCUAUUUAAUACAGCUG | 0.37 |
| GCACCUGUCAUCCCAGUCCAUCCCACCGUUCCCUUACUGUACUCUGCAACUCACCAUCUGGAAUUAAGUGACAUGCUUUAAAACUUAAGAGUUUAGAAGAAACAAAAGGC | 1.06 |
| CUUUGCUUUGAGACCUUUCCUCUCCUGGGUACUGAGGUGCUAUGAAGCCAACUGACAAAGAUGCAUCACGUGUCUUAGGCUGAUGCCACUACCCGAUUUGUUUAUUUGCA | 17 |
| UGGUAACAGAGCGUCACCACAUAGGAUGUGCCAUUAUCUAGCUAAAGUCAUUCCUUCCUUCCUUCUGUUUCAAGUCAUUGCUGCCAGAUCUGGCUUAAUAAGACUUGGUG | 0.312 |
| ACACACCAAUCAAAACCUUAUUGGUCUGGAAGUUGGGAUUCCGUUUUUGGUAGAUCGUGGUAGAUCUGGUACUCCUAACUCCCUGGUCCUCAGGCGGCUCCUCUGUAAAA | 0.684 |
| GAUCUGGAGGAGGGCAGCGGAGCCUGCCUCGGUUCAGUGAUGGUUUUUCUUACCUGCUUCAAGCCGAGAUCUGAAAGCUUUGUGGAAGAUGAUCAAGCAAAGCUCCCAAG | 0.396 |
| UGGCCAGUUCUUUUGUUUGUGCUUUGUAACAUAGGUACUUGGGAGACCAGCUGCCCUCCUGGCUUUUGGCUUUUUGGUGUCCUUGAAGGAGACCAGUCAUGAGUACCAAG | 0.577 |

Some of these lines once more (sample 6):
| Oligonucleotide | fitted relative affinity |
| --- | --- |
| GACGGACTGGGACTCGGGACGTGCTAG | -0.696 z-score |
| GACGTACTGCTTTTCCTGACGTGCTAG | 0.166 z-score |
| TCCATTTTCTAAATGCCCTGGTGCTAG | 2.79 z-score |
| TTAGGTATCCTTCTCCTTGAGTGCTAG | 6.71 z-score |
| GACGGTATCCTAATGCTGACGTGCTAG | 4.1 z-score |
| ATATATATCATTTAATTATAGTGCTAG | 0.939 z-score |
| TCAACTCTTTATTTAAGACTGTGCTAG | 0.53 z-score |
| TTAGGACTGCTTTTCGTTTAGTGCTAG | 1.12 z-score |
| GACGGTTTCGGTTACGGGACGTGCTAG | 7.78 z-score |
| TTAGGTATCGGGTAGCGGTTAGTGCTA | 0.499 z-score |
